Assay results collected from several papers.
Protocols differ between the studies behind these lines. ± gives the spread as reported.
Method: steady-state kinetics
B1: RDH13 (Homo sapiens, UniProt Q8NBN7); chain MSRYLLPLSALGTVAGAAVLLKDYVTGGACPSKATIPGKTVIVTGANTGIGKQTALELARRGGNIILACRDMEKCEAAAKDIRGETLNHHVNARHLDLASLKSIREFAAKIIEEEERVDILINNAGVMRCPHWTTEDGFEMQFGVNHLGHFLLTNLLLDKLKASAPSRIINLSSLAHVAGHIDFDDLNWQTRKYNTKAAYCQSKLAIVLFTKELSRRLQGSGVTVNALHPGVARTELGRHTGIHGSTFSSTTLGPIFWLLVKSPELAAQPSTYLAVAEELADVSGKYFDGLKQKAPAPEAEDEEVARRLWAESARLVGLEAPSVREQPLPR
B2: enzyme C458A (Methanosarcina mazei, UniProt Q8PVB1); chain MSEQRSVPLREHLLALKPCRHGGLIQETSETYGIPENEILDFSANFNPLGSPFDYPENGLNFEDIIKKSCGKLLEYPDNRYVEFREAAARFVGLGVTPQSIVPGNGSTEIVRLVVESVIEKGDKVLLPWPTFGEYEMQCRITGAEPVCPSQEEVNTLPDEVLEEAKILFICNPNNPTGKLRTREELKVLAERCREHKTLLYVDEAFIELSDPSQSVADLPAENNYVFVMRSLTKDFAIPGIRMGFGIAPPAMADILNTARLSWNLGAIANNTGIALLNIEGGIDSPYLKKAREMILKEGETLKAKIDRIRGFEAGEVNVNFILVDVSKFMLNSSELTARLAARGVLVRDCVSFHGLGKNYIRVAVRTEKENDRLIAAIGDVITEWGREQAKNELQHVIEKASEEGIGGRKTCEYYPCHFEGQNCTFCFCPFYPCENEKTGGKWIQSSRGGRVWSCVDAHLVHKKEIAQKILDCLMHEGDTDELVKVAWKEVMEPIL
B3: SCO6712 S292F/V290N (Streptomyces coelicolor, UniProt Q9XAL8); chain AKGITARTAPAGGEVRHLKMYAEKLADGQMGYGFEKGKASVPGPLIEVNEGDTLHIEFTNTMDVRASLHVHGLDYEISSDGTAMNKSDVEPGGTRTYTWRTHKPGRRDDGTWRPGSAGYWHYHDHVVGTEHGTGGIRNGLYGPVIVRRKGDVLPDATHTIVFNDMTINNRKPHTGPDFEATVGDRVEIVMITHGEYYHTFHMHGHRWADNRTGILTGPDDPSRVIDNKITGPADSFGFQIIAGEGVGAGAWMYHCHNQFHSDMGMVGLFLVKKPDGTIPGYEPHEHGGATAKSGESGEPTGGAAAHEHEH
B4: enzyme (Castanea crenata, UniProt P82859); chain MEEFLTVGLWGGEGGDRWSFVVNNGGIIGMEIVHANGIASITFKCGDEYGVLQHSRKFGGTGEGWKTDKISLNWPEEYLTSISGTVADLWQHIIIRSISFKTNKGTEYGPYGVVTGQPFSYSTEGGVIVGFHGRSGTLLDAIGAYVKIPQKKDNTLKMALPVPRGPGPWGGHGGMEWDDGVFPAIRELHLYVGDSVIHAIRVSYQSKDGEPLLSPKHGGEGGEPIDPIKLEVSKEFLIRIAGFYGPVEGSGSFKALRSITFYTNKAKYGPYGDEIGQAFTSSVAPGRVVGFHGRSGAYLDAIGVHMEYF
B5: enzyme C76S (UniProt A0A0P0CH59); chain MRIALFSDIHANLPALEAVLANMETQQLDAIYCLGDLVGYAPWPNEVVAEIRKRRIPTIAGNYDEGVGLWSPNCGSAYKTDTEKDLGQQSIDFTNNVVTEETRKYLRMLPRQLRLTFMDGSKEENKIELLLVHGSPRKINEYLFEDRPEKSFLKMMEEANADLLFFGHTHKPYHRAMPYEHEGQTRYRHAINIGSVGKPKDGDPRTGYVVVELTPESSLTQKDSIKVEFIRVPYDVETAAQAVEASPLPNEFAQMLRTA
B6: enzyme R85Q (Methanopyrus kandleri, UniProt Q8TWG5); chain MSKVAVIGATGRVGSTAAARLALLDCVNEVTLIARPKSVDKLRGLRRDILDSLAAAQKDAEITIGCERDDYVDADVIVMTAGIPQKPGQTRLDLTKDNAAIIKKYLEGVAEENPEAIVLVVTNPVDVLTYVALKVSGLPKNRVIGLGTHLDSMRFKVLIAKHFNVHMSEVHTRIIGEHGDTMVPVISSTSVGGIPVTRMPGWEDFDVEEAVREVKEAGQRIIETWGGSQFGPAQAITNLVRTILQDERRVLTVSAYLDGEIDGIRDVCIGVPARLGREGVLEIVPIELEEDEMRAFRRSVKVVKEATREAMEAISER
B7: enzyme S252E/S281E/S285E/S287E (Schizosaccharomyces pombe, UniProt P78804); chain MSTPYEPEFQQAYKEIVGSIESSKLFEVHPELKRVLPIISIPERVLEFRVTWEDDKGNCRVNTGYRVQFNSALGPYKGGLRFHPSVNLSILKFLGFEQIFKNALTGLPMGGGKGGSDFDPKGKSDNEIRRFSQAFMRQLFRYIGPQTDVPAGDIGVTGFVVMHMFGEYKRLRNEYSGVVTGKHMLTGGSNIRPEATGYGVVYYVKHMIEHRTKGAETLKGKRVAISGSGNVAQYAALKCIQEGAIVKSISDEKGVLIAKTAEGLVPEEIHEIMALKEKRAEIADEAELCKKHHYIAGARPWTNVGEIDIALPCATQNEVSGEEAAALIKQGCRYVAEGSNMGSSAEAVEVFEKSRASGEGCWLAPGKAANAGGVAVSGLEMAQNAQFSTWTHAEVDAKLAGIMQNIFEQSTDVASKYCDSGSNNIPSLVDGANIAGFLKVATAMQAVGDWW
B8: enzyme (Staphylococcus aureus, UniProt Q2G294); chain MKVEVYKGAQGKHNLKDYEETYNTFDWKDVEQAFSWSETGKMNMAYECIDRHVDQGLGDKIALNYKDEHRKESYTYKDMQRLSNKAANVLSEHAEVDKGDRVFIFMSRTPELYFALLGVLKIGAIVGPLFEAFMEKAVADRLENSEAKVLITNKALLPRVPVDKLPNLKKIVVVDEDVEDNYIDFISLMETASDEFDIEWLKSDDGLILHYTSGSTGQPKGVLHVQQAMLVHYISGKYVLDLQEDDVYWCTADPGWVTGTSYGIFAPWLNGATNCIAGGRFSPEQWYSMIEDFKVTIWYTAPTALRMLMSAGDDIVEKYDLSSLRSILSVGEPLNPEVIKWAKKVYGLTVLDTWWMTETGGHMIVNYPTMDVKLGSMGKPLPGIQAAIIDDAGNELPPNRMGNLAIKKGWPSMMYRIWKNPEKYKSYFIGDWYVSGDSAYKDEDGYFWFQGRVDDVIMTAGERVGPFEVESKLVEHEAVAEAGIIGKPDPVRGEIIKAFVALRKGYEPTDELKEEIRIFVKEGLSAHAAPREIEFKDKLPKTRSGKIMRRVLKAWELNLDAGDLSTME
B9: acsA (Pseudomonas chlororaphis, UniProt Q5CD72); chain MRDYEHVVESFDYLQSATQDLHGELTALNACVECCDRHAHGEAVALYCEAQDGHAERYRFRDLQRQAARFGNFLREQGVKPGDRVAGLMPRTVELLIAILGTWRIGAVYQPLFTAFGPKAIEQRLNCSNARWIVTDPHNRPKLDDVTDCPSIVVTGGAPQNPADHHFWSALNRQADDCAPVLLDASAPFLLMCTSGTTGPAKPLEVPLSAILAFKGYMRDAIDLRADDRFWNLADPGWAYGLYYAVTGPLACGYATLFYDGPFTVESTRHIIAKYAINNLAGSPTAYRFLIAAGAEFADAVRGRLRAVSSAGEPLNPQVVRWFAEQLGVVIHDHYGQTEIGMVLCNHHGLRHPVREGSAGYAVPGYRIVVLDKAHRELPAGQPGVLAVDRERSPLCWFDGYLGMPTQAFAGRYYLSGDIVELNDDGSISFVGRNDDLITTSGYRVGPFDVESALIEHPAVVEAAVIGKPDPQRTELIKAFVVLNTPYLPSPELAEELRLHVRQRLAAHAYPREMEFVDHLPKTPSGKLQRFILRNQEIAKQQALG
UniProt P11446, sequence (whole entry, looked up): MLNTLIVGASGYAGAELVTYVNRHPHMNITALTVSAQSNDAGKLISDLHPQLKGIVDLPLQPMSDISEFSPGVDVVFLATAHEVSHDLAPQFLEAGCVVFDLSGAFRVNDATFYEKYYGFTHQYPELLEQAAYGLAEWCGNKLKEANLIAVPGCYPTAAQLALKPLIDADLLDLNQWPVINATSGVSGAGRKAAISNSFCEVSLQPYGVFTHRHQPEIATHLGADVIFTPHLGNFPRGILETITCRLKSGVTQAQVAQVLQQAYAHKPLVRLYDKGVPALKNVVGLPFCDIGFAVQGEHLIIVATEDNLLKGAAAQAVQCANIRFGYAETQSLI
UniProt P52961, sequence (whole entry, looked up): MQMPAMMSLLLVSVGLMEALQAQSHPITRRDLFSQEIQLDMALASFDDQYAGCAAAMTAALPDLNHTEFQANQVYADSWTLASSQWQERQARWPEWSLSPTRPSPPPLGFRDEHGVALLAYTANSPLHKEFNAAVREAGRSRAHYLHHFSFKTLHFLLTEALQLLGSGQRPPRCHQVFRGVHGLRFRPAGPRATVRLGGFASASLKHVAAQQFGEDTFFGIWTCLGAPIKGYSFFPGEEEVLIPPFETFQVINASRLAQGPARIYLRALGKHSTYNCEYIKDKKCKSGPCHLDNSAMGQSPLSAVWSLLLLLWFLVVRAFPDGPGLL
UniProt Q96C36, sequence (whole entry, unmodified, looked up): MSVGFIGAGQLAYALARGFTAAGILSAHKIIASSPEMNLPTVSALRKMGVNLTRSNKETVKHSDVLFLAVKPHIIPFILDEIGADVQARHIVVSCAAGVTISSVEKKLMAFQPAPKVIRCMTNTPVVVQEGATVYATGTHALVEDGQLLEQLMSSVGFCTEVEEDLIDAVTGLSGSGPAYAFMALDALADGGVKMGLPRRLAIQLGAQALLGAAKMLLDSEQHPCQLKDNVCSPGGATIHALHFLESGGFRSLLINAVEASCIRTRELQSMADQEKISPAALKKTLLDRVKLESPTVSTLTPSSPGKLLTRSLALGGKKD

| Molecule | substrate | pH | temperature | setting | with | kcat [s⁻¹] |
| --- | --- | --- | --- | --- | --- | --- |
| B1 (RDH13) | CC1=C(/C=C/C(C)=C/C=C/C(C)=C/C=O)C(C)(C)CCC1 | pH 7.4 | 37 °C | – | – | 0.673 ± 0.0717 |
| enzyme (Oryza sativa, UniProt Q6ZGQ4) | O=[N+]([O-])c1ccc(O[C@@H]2OC[C@H](O)[C@H](O)[C@H]2O)cc1 | pH 4 | 40 °C | apparent | – | 0.19 ± 0.02 |
| B2 (enzyme C458A) | Nc1ncnc2c1ncn2[C@@H]1O[C@H](COP(=O)(O)OP(=O)(O)OP(=O)(O)O)[C@@H](O)[C@H]1O | pH 8.5 | 25 °C | apparent, anoxic | L-Thr 10 mM | 0.22 ± 0.005 |
| ART1 (Homo sapiens, UniProt P52961) | COC(=O)[C@@H](N)CCCNC(=N)N | pH 7.5 | 25 °C | HEPES 50 mM | saturating NAD+ | 8 ± 0.8 |
| PYCR2 (Homo sapiens, UniProt Q96C36) | O=C(O)[C@@H]1CCC=N1 | pH 7.5 | 37 °C | apparent | NADH 500 µM | 61.3 ± 1.4 |
| enzyme (Caenorhabditis elegans, UniProt Q86D21) | C[C@@H](O)[C@H](N)C(=O)O | pH 7.5 | 37 °C | – | ATP | 1.79 ± 0.18 |
| B3 (SCO6712 S292F/V290N) | CCn1c(=NN=c2sc3cc(S(=O)(=O)O)ccc3n2CC)sc2cc(S(=O)(=O)O)ccc21 | pH 7 | 37 °C | NaCl 150 mM | O2 cosubstrate | 1.65 ± 0.05 |
| B4 (enzyme) | CCCCCCCCCCCCCCCC(=O)Oc1ccc([N+](=O)[O-])cc1 | pH 8 | 35 °C | – | – | 0.00368 |
| B5 (enzyme C76S) | O=[N+]([O-])c1ccc(OP(=O)(O)O)cc1 | pH 7 | 37 °C | – | Ni2+ 0.25 mM | 0.0683 ± 0.00333 |
| B6 (enzyme R85Q) | CC(=O)C(=O)O | pH 6 | 60 °C | – | 0.3 mM NADH | 60 |
| argC (Escherichia coli, UniProt P11446) | N[C@@H](CCC=O)C(=O)O | pH 7.6 | – | apparent | 1 mM NADP+ | 0.008 ± 0.002 |
| B7 (enzyme S252E/S281E/S285E/S287E) | NC(=O)C1=CN([C@@H]2O[C@H](COP(=O)(O)OP(=O)(O)OC[C@H]3O[C@@H](n4cnc5c(N)ncnc54)[C@H](OP(=O)(O)O)[C@@H]3O)[C@@H](O)[C@H]2O)C=CC1 | pH 7 | 30 °C | apparent | – | 14 ± 1 |
| HNL C81L/E79H/G176S/H103V/K236M/N104T/T11G/V106F (Hevea brasiliensis) | CC(=O)Oc1ccc([N+](=O)[O-])cc1 | pH 7.2 | 22 °C | – | – | 0.155 ± 0.005 |
| enzyme (UniProt A0A097IUE6) | O=C(O)CC(=O)C(=O)O | pH 7.5 | 25 °C | – | – | 63.5 ± 0.9 |
| B8 (enzyme) | CCC(=O)O | pH 7 | 30 °C | apparent | – | 3.3 |
| B9 (acsA) | CC(=O)O | pH 7 | – | – | – | 0.2 ± 0.00667 |
| enzyme (Pseudomonas putida, UniProt Q88KZ0) | O=C[C@H](O)COP(=O)(O)O | – | – | – | NADP+ | 9 ± 0.3 |
| enzyme Y26F (Homo sapiens, UniProt Q08623) | O=c1[nH]cc([C@@H]2O[C@H](COP(=O)(O)O)[C@@H](O)[C@H]2O)c(=O)[nH]1 | pH 7 | 25 °C | – | – | 0.783 |
| enzyme (Pseudomonas poae, UniProt A0A2S9EJ63) | O=Cc1ccc(CO)o1 | pH 8 | 30 °C | – | 2 µM FAD | 0.00855 |
| enzyme (Pseudanabaena biceps, UniProt L8N0N6) | NC(=O)c1ccc[n+]([C@@H]2O[C@H](COP(=O)(O)O)[C@@H](O)[C@H]2O)c1 | pH 7.4 | 30 °C | apparent, cofactor varied | – | 3.02 ± 0.01 |

Some of these lines once more:
| Molecule | substrate | pH | temperature | setting | with | kcat [s⁻¹] |
| --- | --- | --- | --- | --- | --- | --- |
| B6 (enzyme R85Q) | CC(=O)C(=O)O | pH 6 | 60 °C | – | 0.3 mM NADH | 60 |
| B2 (enzyme C458A) | Nc1ncnc2c1ncn2[C@@H]1O[C@H](COP(=O)(O)OP(=O)(O)OP(=O)(O)O)[C@@H](O)[C@H]1O | pH 8.5 | 25 °C | apparent, anoxic | L-Thr 10 mM | 0.22 ± 0.005 |
| enzyme (Pseudomonas putida, UniProt Q88KZ0) | O=C[C@H](O)COP(=O)(O)O | – | – | – | NADP+ | 9 ± 0.3 |
